Assay results gathered from unrelated publications.
Protocols differ between the studies behind these lines.
FURIN: Furin (FURIN, Homo sapiens, UniProt P09958)
CASP3: Caspase-3 (CASP3, Homo sapiens, UniProt P42574)

By UniProt entry, the sequences of proteins in these tests, tags left out. Residues count along the entry.
UniProt P09958, whole entry, looked up: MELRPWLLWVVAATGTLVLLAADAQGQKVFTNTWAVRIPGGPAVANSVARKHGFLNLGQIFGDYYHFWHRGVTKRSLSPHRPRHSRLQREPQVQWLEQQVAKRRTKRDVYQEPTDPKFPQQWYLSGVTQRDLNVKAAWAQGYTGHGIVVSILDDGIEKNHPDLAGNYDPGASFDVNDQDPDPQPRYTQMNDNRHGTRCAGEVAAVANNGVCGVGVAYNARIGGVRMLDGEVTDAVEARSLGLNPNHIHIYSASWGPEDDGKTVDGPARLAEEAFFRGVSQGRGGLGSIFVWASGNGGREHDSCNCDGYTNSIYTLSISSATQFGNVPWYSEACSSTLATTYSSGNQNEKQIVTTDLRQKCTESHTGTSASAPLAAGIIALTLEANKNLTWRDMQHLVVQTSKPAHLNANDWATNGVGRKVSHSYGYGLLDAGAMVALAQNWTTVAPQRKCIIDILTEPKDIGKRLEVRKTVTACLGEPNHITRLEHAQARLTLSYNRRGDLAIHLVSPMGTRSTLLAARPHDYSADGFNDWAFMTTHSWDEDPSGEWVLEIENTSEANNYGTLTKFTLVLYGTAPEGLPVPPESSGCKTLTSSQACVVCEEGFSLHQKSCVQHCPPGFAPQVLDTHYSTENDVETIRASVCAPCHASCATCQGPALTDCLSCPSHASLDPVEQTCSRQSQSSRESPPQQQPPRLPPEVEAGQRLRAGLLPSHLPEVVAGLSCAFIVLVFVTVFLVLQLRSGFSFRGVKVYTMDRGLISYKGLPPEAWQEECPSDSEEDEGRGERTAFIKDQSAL
UniProt P42574, whole entry, looked up: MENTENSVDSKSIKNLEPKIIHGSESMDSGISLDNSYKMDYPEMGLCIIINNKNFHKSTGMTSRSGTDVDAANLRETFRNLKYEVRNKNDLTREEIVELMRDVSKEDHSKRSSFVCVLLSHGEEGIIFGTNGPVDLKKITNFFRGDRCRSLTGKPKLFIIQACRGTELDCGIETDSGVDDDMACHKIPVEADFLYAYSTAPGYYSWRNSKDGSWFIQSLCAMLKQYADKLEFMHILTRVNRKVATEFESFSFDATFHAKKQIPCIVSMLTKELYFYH
UniProt P55210, whole entry, looked up: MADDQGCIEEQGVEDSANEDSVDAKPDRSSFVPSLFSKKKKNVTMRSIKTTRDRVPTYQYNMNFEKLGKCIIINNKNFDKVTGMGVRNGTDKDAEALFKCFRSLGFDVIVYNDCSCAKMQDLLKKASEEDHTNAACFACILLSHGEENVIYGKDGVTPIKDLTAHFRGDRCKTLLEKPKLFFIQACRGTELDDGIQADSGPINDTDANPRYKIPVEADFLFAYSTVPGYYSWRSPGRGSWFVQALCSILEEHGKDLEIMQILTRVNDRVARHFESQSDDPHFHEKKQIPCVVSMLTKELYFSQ
UniProt Q03530, whole entry: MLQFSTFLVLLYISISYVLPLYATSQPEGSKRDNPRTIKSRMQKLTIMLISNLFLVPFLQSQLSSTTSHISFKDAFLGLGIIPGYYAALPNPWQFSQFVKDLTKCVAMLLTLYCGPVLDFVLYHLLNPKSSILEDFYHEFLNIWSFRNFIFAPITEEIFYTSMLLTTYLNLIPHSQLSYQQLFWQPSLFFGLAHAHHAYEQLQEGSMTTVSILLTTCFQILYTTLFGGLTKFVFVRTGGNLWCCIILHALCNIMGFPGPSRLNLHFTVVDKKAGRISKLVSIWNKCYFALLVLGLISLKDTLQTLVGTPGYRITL
UniProt P09211, whole entry: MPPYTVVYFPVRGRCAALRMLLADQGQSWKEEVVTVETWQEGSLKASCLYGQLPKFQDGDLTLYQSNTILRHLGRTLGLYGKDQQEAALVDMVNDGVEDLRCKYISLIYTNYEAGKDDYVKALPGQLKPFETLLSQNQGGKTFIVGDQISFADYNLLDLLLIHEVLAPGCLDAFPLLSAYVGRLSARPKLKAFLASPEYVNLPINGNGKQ
UniProt Q5JRX3, 29-1037 limits assumed: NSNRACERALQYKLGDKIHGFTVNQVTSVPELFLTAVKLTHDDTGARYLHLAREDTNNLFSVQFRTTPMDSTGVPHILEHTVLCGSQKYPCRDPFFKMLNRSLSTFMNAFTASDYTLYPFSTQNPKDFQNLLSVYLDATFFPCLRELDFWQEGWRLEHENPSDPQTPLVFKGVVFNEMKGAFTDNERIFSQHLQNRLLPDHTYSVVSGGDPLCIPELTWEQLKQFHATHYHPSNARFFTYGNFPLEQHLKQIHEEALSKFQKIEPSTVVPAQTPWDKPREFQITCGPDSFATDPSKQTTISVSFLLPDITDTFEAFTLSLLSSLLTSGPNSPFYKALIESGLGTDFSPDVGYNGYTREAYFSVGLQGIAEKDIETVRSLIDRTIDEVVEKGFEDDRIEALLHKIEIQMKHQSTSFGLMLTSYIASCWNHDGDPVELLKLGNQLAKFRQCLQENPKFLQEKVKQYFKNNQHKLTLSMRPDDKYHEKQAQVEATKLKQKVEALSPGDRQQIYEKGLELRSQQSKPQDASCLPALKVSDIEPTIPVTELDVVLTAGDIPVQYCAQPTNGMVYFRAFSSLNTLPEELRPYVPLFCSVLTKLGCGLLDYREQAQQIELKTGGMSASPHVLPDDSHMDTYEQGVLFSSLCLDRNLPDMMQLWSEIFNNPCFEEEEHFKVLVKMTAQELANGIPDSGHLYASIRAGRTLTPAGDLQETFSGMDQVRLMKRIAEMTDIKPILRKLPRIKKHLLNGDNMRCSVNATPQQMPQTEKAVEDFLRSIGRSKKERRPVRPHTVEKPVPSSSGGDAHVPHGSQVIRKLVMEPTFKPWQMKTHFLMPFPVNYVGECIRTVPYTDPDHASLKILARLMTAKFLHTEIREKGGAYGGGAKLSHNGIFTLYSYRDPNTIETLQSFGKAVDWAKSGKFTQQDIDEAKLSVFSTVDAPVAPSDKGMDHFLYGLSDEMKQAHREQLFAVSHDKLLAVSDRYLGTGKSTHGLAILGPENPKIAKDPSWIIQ
UniProt O55242, whole entry: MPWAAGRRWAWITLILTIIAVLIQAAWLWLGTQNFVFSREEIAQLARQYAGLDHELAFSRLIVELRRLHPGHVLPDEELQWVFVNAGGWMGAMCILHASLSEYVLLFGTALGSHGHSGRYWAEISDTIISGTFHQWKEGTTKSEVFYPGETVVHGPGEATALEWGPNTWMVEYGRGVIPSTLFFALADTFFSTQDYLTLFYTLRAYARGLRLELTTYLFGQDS

`CC(C)[C@H](NC(=O)CNC(=O)[C@H](CC(=O)O)NC(=O)[C@@H](NC(=O)[C@H](CCC(=O)O)NC(=O)[C@H](CC(=O)O)NC(=O)CCNC(=O)Cc1cc(=O)oc2cc(N)ccc12)C(C)C)C(=O)N[C@@H](CCCCNc1ccc([N+](=O)[O-])cc1[N+](=O)[O-])C(=O)N[C@@H](CC(=O)O)C(N)=O` has a Km of 6.05 µM (Caspase-7 (CASP7, Homo sapiens, UniProt P55210); substrate; pH 7.2).
`CC(C)C[C@H](NC(=O)CNC(=O)[C@H](CCCNC(=N)N)NC(=O)[C@H](CCCCN)NC(=O)[C@H](CCCCN)NC(=O)[C@H](CCCNC(=N)N)NC(=O)[C@H](CCCNC(=N)N)NC(=O)[C@H](CCCNC(=N)N)NC(=O)c1ccccc1N)C(=O)N[C@@H](CO)C(=O)NCC(=O)N[C@@H](CCC(N)=O)C(=O)NCCNc1ccc([N+](=O)[O-])cc1[N+](=O)[O-]` gave a Km of 3.01 µM (FURIN; substrate; pH 7.0, 37 °C, no KCl).
For `CC(C)[C@H](NC(=O)CNC(=O)[C@H](COP(=O)(O)O)NC(=O)[C@@H](NC(=O)[C@H](CCC(=O)O)NC(=O)[C@H](CC(=O)O)NC(=O)CCNC(=O)Cc1cc(=O)oc2cc(N)ccc12)C(C)C)C(=O)N[C@@H](CCCCNc1ccc([N+](=O)[O-])cc1[N+](=O)[O-])C(=O)N[C@@H](CC(=O)O)C(N)=O`, the Km was 8.76 µM (CASP3; substrate; pH 7.2).
The Vmax of `CC[C@H](C)[C@H](NC(=O)[C@H](CCCCNc1ccc([N+](=O)[O-])cc1[N+](=O)[O-])NC(=O)[C@H](CSC/C=C(\C)COCc1cccc(C(=O)c2ccccc2)c1)NC(=O)[C@H](CCCCN)NC(=O)[C@@H](NC(=O)[C@H](CCCCN)NC(=O)[C@H](CO)NC(=O)[C@H](CCCCN)NC(=O)c1ccccc1N)[C@@H](C)O)C(=O)N[C@@H](CCSC)C(=O)O` is reported as 0.093 nmol/min/mg protein (CAAX prenyl protease 2 (Saccharomyces cerevisiae S288c, UniProt Q03530); CAAX proteolysis, substrate, fluorescence; yeast membranes; range over 0 to 45 µM, 1 h, pH 7.5, 30 °C, membranes 0.25 mg/mL protein).
`CC(C)[C@H](NC(=O)[C@H](CO)NC(=O)[C@H](CC(=O)O)NC(=O)[C@H](CCC(N)=O)NC(=O)CCNC(=O)Cc1cc(=O)oc2cc(N)ccc12)C(=O)N[C@@H](CC(=O)O)C(=O)N[C@@H](Cc1ccccc1)C(=O)N[C@@H](COP(=O)(O)O)C(=O)N[C@@H](CC(N)=O)C(=O)N[C@@H](Cc1c[nH]cn1)C(=O)N[C@@H](CC(=O)O)C(=O)N[C@@H](CCCCNc1ccc([N+](=O)[O-])cc1[N+](=O)[O-])C(N)=O` has a kcat/Km decrease of 58 fold (CASP3; substrate; reference: unphosphorylated substrate over phosphorylated).
The mass increase of `C=C(CC)C(=O)c1ccc(OCC(=O)NCCOCCOCCOCCC(=O)NCCN(CCNC(=O)CCOCCOCCOCCNC(=O)COc2ccc(C(=O)C(=C)CC)c(Cl)c2Cl)CCNC(=O)[C@H](CNC(=O)CCN2C(=O)CC(SC[C@H](NC(=O)CNC(=O)[C@H](CC(C)C)NC(=O)[C@@H](NC(=O)[C@H](CCCCN)NC(=O)[C@H](CCCCN)NC(=O)[C@H](C)NC(=O)[C@H](CC(C)C)NC(=O)[C@H](C)NC(=O)[C@H](C)NC(=O)[C@H](CC(C)C)NC(=O)[C@H](C)NC(=O)[C@H](CCCCN)NC(=O)[C@H](CC(C)C)NC(=O)[C@H](CC(N)=O)NC(=O)[C@@H](N)[C@@H](C)CC)[C@@H](C)CC)C(=O)O)C2=O)NC(=O)CCCCCN2C(=CC=CC=CC3=[N+](C)c4ccc(S(=O)(=O)O)cc4C3(C)C)C(C)(C)c3cc(S(=O)(=O)[O-])ccc32)c(Cl)c1Cl` (stereo partly shown) is reported as 3620 Da (GSTP1 (Homo sapiens, UniProt P09211); covalent adduct, LC-MS; 2.5 µM, 10 min).
`CC(C)C[C@H](NC(=O)[C@H](Cc1ccccc1)NC(=O)CNC(=O)CNC(=O)[C@@H](N)Cc1ccc(O)cc1)C(=O)O` has a kcat of 1.08 s⁻¹ (aminopeptidase III peak, rat; substrate; MW 110 kDa, together with: NAP-2).
`CC(C)C[C@H](NC(=O)[C@H](CO)NC(=O)[C@H](CCCNC(=N)N)NC(=O)[C@H](CCCCN)NC(=O)[C@H](CCCCN)NC(=O)[C@H](CCCNC(=N)N)NC(=O)[C@H](CCCNC(=N)N)NC(=O)[C@H](CCCNC(=N)N)NC(=O)c1ccccc1N)C(=O)N[C@@H](Cc1ccccc1)C(=O)NCC(=O)N[C@@H](CCC(N)=O)C(=O)NCCNc1ccc([N+](=O)[O-])cc1[N+](=O)[O-]` gave a Km of 1.65 µM (FURIN; substrate; pH 7.0, 37 °C, no KCl).
For `CC(C)[C@H](NC(=O)[C@H](CCCCN)NC(=O)[C@H](Cc1ccccc1)NC(=O)[C@H](CCC(N)=O)NC(=O)[C@H](CCCNC(=N)N)NC(=O)[C@H](CCCNC(=N)N)NC(=O)c1ccccc1N)C(=O)N[C@H](C(=O)N[C@H](C(=O)N[C@@H](CCCNC(=N)N)C(=O)N[C@@H](CO)C(=O)N[C@@H](CCC(N)=O)C(=O)NCCNc1ccc([N+](=O)[O-])cc1[N+](=O)[O-])[C@@H](C)O)C(C)C`, the Km was 1.07 µM (Presequence protease, mitochondrial (Homo sapiens, UniProt Q5JRX3); substrate; pH 7.5).
For `COC(=O)[C@H]1[C@@H](OC(=O)c2ccccc2)C[C@@H]2CC[C@H]1N2C`, the ED50 was 68 µmol/kg (Sigmar1 (Mus musculus, UniProt O55242); receptor occupancy; CD-1 mouse, whole brain; intraperitoneal, together with: iodinated radioligand).

A few entries again:
`CC(C)[C@H](NC(=O)[C@H](CO)NC(=O)[C@H](CC(=O)O)NC(=O)[C@H](CCC(N)=O)NC(=O)CCNC(=O)Cc1cc(=O)oc2cc(N)ccc12)C(=O)N[C@@H](CC(=O)O)C(=O)N[C@@H](Cc1ccccc1)C(=O)N[C@@H](COP(=O)(O)O)C(=O)N[C@@H](CC(N)=O)C(=O)N[C@@H](Cc1c[nH]cn1)C(=O)N[C@@H](CC(=O)O)C(=O)N[C@@H](CCCCNc1ccc([N+](=O)[O-])cc1[N+](=O)[O-])C(N)=O` has a kcat/Km decrease of 58 fold (CASP3; substrate; reference: unphosphorylated substrate over phosphorylated).
